Published values from different studies.
Compare with care: the assays were run in different laboratories. “And” joins repeats or separate records; there may be more than shown. Numbers after ± are the reported error. Converted amounts (≈) assume the structure as drawn.
Sequence of UniProt Q86UE8 (whole entry, looked up): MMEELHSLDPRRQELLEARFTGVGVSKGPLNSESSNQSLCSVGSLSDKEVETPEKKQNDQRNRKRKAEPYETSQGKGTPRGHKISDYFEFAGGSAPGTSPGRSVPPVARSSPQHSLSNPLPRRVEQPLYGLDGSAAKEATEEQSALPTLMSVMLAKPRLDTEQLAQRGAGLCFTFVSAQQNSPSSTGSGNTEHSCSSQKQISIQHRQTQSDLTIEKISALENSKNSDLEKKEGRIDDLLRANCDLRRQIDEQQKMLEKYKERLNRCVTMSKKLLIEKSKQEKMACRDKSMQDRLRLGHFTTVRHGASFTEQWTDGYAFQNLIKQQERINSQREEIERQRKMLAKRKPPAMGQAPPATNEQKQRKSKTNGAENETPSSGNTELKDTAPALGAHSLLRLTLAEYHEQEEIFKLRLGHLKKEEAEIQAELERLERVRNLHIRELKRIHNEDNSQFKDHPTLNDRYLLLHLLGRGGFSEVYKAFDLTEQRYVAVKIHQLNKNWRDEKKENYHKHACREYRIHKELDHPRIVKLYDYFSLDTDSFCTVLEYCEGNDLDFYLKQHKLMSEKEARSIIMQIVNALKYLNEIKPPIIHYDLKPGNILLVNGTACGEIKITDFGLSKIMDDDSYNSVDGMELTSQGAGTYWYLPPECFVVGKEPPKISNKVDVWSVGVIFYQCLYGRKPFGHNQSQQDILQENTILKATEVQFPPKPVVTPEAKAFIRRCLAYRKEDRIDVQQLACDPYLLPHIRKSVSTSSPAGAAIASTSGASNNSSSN
Sequence of UniProt P49327 (whole entry, looked up): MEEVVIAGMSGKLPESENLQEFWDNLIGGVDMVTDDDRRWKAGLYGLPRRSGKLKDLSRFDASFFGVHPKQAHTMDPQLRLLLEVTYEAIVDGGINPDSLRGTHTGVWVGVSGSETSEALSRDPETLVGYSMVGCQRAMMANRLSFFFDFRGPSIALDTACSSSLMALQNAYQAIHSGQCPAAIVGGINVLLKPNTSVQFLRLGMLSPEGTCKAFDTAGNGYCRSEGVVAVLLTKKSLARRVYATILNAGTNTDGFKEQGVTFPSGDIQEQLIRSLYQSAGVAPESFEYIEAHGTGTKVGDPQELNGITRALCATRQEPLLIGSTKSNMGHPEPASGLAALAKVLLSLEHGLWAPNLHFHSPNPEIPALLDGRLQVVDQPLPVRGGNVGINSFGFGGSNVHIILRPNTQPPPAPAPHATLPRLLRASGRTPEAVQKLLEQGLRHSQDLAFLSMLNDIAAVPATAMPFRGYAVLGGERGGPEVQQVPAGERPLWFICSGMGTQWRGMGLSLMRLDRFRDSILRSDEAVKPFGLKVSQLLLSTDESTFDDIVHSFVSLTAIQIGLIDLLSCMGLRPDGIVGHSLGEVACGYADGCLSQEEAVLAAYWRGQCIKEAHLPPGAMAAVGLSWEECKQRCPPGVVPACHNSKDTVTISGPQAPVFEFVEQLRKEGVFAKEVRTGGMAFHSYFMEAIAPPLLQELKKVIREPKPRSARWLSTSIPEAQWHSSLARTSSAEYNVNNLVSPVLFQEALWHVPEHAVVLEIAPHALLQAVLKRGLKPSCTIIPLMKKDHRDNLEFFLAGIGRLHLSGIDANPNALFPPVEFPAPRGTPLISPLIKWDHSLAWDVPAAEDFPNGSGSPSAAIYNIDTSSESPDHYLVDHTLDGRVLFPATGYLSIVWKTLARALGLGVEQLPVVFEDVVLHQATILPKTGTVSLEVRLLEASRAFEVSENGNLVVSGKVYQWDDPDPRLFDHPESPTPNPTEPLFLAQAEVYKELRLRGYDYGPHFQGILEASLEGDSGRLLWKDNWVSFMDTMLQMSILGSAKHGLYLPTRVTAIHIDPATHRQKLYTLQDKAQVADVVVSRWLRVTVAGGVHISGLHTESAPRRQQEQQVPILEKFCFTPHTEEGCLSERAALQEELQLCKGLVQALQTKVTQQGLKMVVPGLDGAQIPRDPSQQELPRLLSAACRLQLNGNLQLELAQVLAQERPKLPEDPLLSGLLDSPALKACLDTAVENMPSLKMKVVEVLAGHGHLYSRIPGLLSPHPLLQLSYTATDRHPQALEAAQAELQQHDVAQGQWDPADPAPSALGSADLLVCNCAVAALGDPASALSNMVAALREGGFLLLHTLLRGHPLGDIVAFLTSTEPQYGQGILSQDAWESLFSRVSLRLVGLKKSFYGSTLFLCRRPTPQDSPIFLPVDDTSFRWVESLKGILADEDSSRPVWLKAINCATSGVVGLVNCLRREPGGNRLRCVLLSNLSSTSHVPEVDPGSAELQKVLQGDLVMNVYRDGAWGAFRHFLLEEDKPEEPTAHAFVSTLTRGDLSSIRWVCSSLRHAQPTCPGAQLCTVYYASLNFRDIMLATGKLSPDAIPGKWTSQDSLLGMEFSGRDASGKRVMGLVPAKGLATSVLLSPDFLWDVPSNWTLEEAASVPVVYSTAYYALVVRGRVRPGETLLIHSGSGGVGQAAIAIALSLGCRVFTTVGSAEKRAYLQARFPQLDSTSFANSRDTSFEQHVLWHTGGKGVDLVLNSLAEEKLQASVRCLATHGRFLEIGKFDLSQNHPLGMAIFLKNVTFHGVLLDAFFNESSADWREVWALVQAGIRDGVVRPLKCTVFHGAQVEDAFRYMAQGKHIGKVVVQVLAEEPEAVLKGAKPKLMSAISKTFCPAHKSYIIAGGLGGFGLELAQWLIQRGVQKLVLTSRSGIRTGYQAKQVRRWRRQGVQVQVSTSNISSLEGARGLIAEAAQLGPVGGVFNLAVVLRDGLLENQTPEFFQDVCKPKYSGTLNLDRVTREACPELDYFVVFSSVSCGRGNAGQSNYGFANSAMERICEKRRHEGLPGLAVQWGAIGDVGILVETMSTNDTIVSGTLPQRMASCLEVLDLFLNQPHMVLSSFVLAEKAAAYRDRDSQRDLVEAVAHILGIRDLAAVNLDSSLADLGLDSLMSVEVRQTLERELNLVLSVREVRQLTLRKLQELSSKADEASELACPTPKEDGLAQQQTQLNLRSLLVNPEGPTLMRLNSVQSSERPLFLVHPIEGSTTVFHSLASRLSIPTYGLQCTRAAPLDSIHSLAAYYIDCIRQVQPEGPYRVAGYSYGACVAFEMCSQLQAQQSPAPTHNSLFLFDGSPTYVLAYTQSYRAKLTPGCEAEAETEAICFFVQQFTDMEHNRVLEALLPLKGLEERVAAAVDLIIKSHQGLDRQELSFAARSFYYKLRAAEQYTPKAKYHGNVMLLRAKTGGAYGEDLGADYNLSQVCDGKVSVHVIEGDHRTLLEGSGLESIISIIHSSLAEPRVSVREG

SMILES	target or system	assay	test system	setting	scale	measurement	value
O=S(=O)(Nc1ccccc1)c1ccc(NC(=S)Nc2ccccc2)cc1	–	refers to: BA%	female mouse, blood	oral, 80 mg/kg daily, 14 days	–	blood cell fraction	0.71%
O=c1nc(NO)ccn1[C@@H]1O[C@H](CO)[C@@H](O)[C@H]1O	–	–	rat maternal blood dialysate	1000 ng/mL, more than 4 weeks, -20 °C, high concentration, added: molnupiravir 250 ng/mL	–	long-term stability	104 ± 7.63%
C[C@H]1CN(c2n[nH]c3nc(N[C@H]4CC[C@H](NS(=O)(=O)CCC(F)(F)F)CC4)ncc23)CCO1	TLK2 (Homo sapiens, UniProt Q86UE8)	inhibitor, Kinobeads competition profiling	–	0.032 µM	baseline: vehicle	relative abundance	1.09
CC1(C)[C@H](C=C(Cl)Cl)[C@H]1C(=O)OCc1cccc(Oc2ccccc2)c1	–	refers to: CYP1A2	human, age 1 year, recombinant human CYP1A2	0.1 µM	–	enzyme contribution to clearance	0.03%
CN1CC[C@@H](c2c(O)cc(O)c3c(=O)cc(-c4ccc(C(F)(F)F)cc4Cl)oc23)[C@@H]1CO	–	refers to: Epistaxis	relapsed AML	oral, 100 mg, grade 3-4, intermittent dosing	–	patients with adverse event	0%
Cn1nc(NS(C)(=O)=O)c2c(Cl)ccc(-n3c([C@H](Cc4cc(F)cc(F)c4)NC(=O)Cn4nc(C(F)F)c5c4C(F)(F)[C@@H]4C[C@H]54)nc4nc(OCCC(F)(F)F)ccc4c3=O)c21	–	–	human	oral, dose not given	–	participants, with AEs, drug-related	15%
C[C@]12CC[C@@H]3c4ccc(O)cc4CC[C@H]3[C@@H]1CCC2=O	–	ultrafiltration	cow milk whey	2000 nM nominal in whole milk	–	final permeate concentration	26.4 nM
COc1cc(Nc2ncc(F)c(Nc3ccc4c(n3)NC(=O)C(C)(C)O4)n2)cc(OC)c1OC	–	–	HEPES buffer	24 h, pH 7.4, 0.1% DMSO	–	solubility	3.5 µM (≈ 1.65 µg/mL)
COc1ccc2nc3cc(Cl)ccc3c(Nc3cc(CN4CCCC4)c(O)c(CN4CCCC4)c3)c2n1	–	–	mouse, blood	oral, 57 mg/kg, tolerability, mean	–	mean corpuscular volume	39.4 fL
CCN1[C@@H](C(=O)NC23CCC(C(=O)O)(CC2)CC3)[C@H](c2cccc(Cl)c2F)[C@]2(C(=O)Nc3cc(Cl)ccc32)C12CCCCC2	–	–	patients with advanced solid tumours	oral, dose not given, all doses	–	any-grade lymphocytopenia incidence	42.9%
COc1ncnn2ccc(-c3cnc4nc(C)n(Cc5nnc([C@@H](C)F)o5)c4c3)c12	–	–	human patients	oral, dose not given	–	incidence of amylase increased (all grades)	14.3%
C1=Cc2nc1cc1ccc([n-]1)c(-c1ccccc1)c1nc(cc3ccc([n-]3)c2-c2ccccc2)C=C1.CC(=O)[O-].[Mn+3]	–	LC-MS/MS	Sprague-Dawley rat, plasma	oral gavage, dose not given, 30 min, individual rat Rat2	–	plasma concentration	26 ng/mL
O=C(Nc1ccccc1)C1CCN(C(=O)Oc2cccnc2)CC1	–	adverse event reporting	healthy women	oral, 100 mg, 9 days	–	subjects with blurred vision	15.4%
CCc1ccc(Sc2cc(C(=O)NCCCN3CCCC(C)C3)c3ccccc3n2)cc1 (centres unmarked)	Vero-E6	CellTiter-Glo ATP	–	72 h, first round 5-point	baseline: DMSO 0%, hyamine -100%, more negative, more toxic	maximum response	-1.68%
C[C@]1(CO)Cc2ncn(-c3ccc(C#N)c(Cl)c3)c2C(=O)O1	–	–	human, plasma	40 mg single dose, geometric mean	–	half-life	5.2 h
CC(C)C[C@H](NC(=O)[C@H](CCCCN)NC(=O)OCC1c2ccccc2-c2ccccc21)C(=O)N[C@H](C(=O)N[C@@H](Cc1ccccc1)C(=O)N[C@@H](Cc1ccccc1)C(=O)N[C@@H](CCCCN)C(=O)NCC(=O)N[C@@H](Cc1ccccc1)C(=O)N[C@@H](C)C(=O)N[C@@H](Cc1c[nH]c2ccccc12)C(=O)N[C@@H](CC(N)=O)C(=O)N[C@H](C(=O)N[C@H]1CSSC[C@@H](C(=O)N[C@@H](Cc2c[nH]cn2)C(=O)N[C@@H](CCCNC(=N)N)C(=O)N[C@@H](CCCNC(=N)N)C(=O)N[C@@H](C)C(=O)N[C@@H](CC(N)=O)C(N)=O)NC(=O)[C@H](C(C)C)NC(=O)[C@H](CCCNC(=N)N)NC(=O)[C@H](C(C)C)NC(=O)CNC(=O)[C@H](CC(N)=O)NC(=O)[C@H](CCCNC(=N)N)NC(=O)[C@H](Cc2ccc(O)cc2)NC(=O)[C@H](C(C)C)NC1=O)C(C)C)C(C)C	–	HPLC	trypsin buffer	1.00 h, 37 °C, added: trypsin 1 % w/v	–	peptide remaining	69.4% and 60.9% and 66.5%
CNc1nc(N)ncc1-c1cn([C@@H]2O[C@H](CO)[C@@H](O)[C@@]2(C)F)cn1	–	–	CD-1 mouse	100 mg/kg single dose	–	time serum level quantifiable	> 2 h
CCc1cc2c(cc1CC)CC(NC[C@H](O)c1ccc(O)c3[nH]c(=O)ccc13)C2	–	–	human	inhaled	–	lung deposited fraction	0.15
CC(=O)c1c(C)c2cnc(Nc3ccc(C4CCN(CCS(C)(=O)=O)CC4)cn3)nc2n(C2CCCC2)c1=O	–	–	human, plasma	oral, 100 mg twice daily, single dose, monotherapy	–	t1/2	5.67 h
COc1cc2c(Oc3ccc4[nH]c(C)cc4c3F)ccnc2cc1OCC1(N)CC1	–	–	paediatric recurrent refractory sarcoma	12 mg	–	grade 3 sinus arrhythmia	0%
NCCCC[C@@H]1NC(=O)[C@@H](Cc2c[nH]c3ccccc23)NC(=O)[C@H](c2ccccc2)NC(=O)[C@@H]2C[C@@H](OC(=O)NCCN)CN2C(=O)[C@H](Cc2ccccc2)NC(=O)[C@H](Cc2ccc(OCc3ccccc3)cc2)NC1=O	–	–	healthy human volunteers	600 µg twice daily	–	subjects with abdominal pain	17%
COc1cccc(Oc2ccccc2NC(=O)CNC(=O)c2cccc3ccccc23)c1	–	–	esterase-deficient SCID mice, male	oral, 100 mg/kg/day, 14 days, toxicity study	–	serum chloride	112 mmol/L and 111 mmol/L
O=C(O)CCCOc1ccc(F)cc1-c1cc(-c2ccccc2C(F)(F)F)n(-c2ccccc2)n1	–	–	male Crl:CD(SD) rats, lungs	intravenous, 25 µg/kg, 14 d	–	relative organ weight	0.31 ± 0.01 g%
COc1ccc([C@@H]2CC(=O)c3c(O)cc(O)cc3O2)cc1O	–	–	male Sprague-Dawley rat, lean	oral, 100 mg/kg of neohesperidin, 12 to 24 h	–	faecal excreted amount	2050 ± 856 ng
COc1ncccc1-c1cnn2ccc(N3CCN(C(=O)OC(C)C)CC3)nc12	–	–	mouse formalin model, plasma	oral, 60 mg/kg, 60 min	–	free plasma concentration	510 nM
CO[C@H]1C[C@@H]2CC[C@@H](C)[C@@](O)(O2)C(=O)C(=O)N2CCCC[C@H]2C(=O)O[C@H]([C@H](C)C[C@@H]2CC[C@@H](OC(=O)NCCOCCOCCOCCOCCOCCOCCOCCOCCC(=O)N3CCc4cc(Cn5nc(-c6ccc7oc(N)nc7c6)c6c(N)ncnc65)ccc4C3)[C@H](OC)C2)C[C@@H](O)[C@H](C)/C=C(\C)[C@@H](O)[C@@H](OC)C(=O)[C@H](C)C[C@H](C)/C=C/C=C/C=C/1C	–	–	patients with advanced solid tumours	intravenous, dose not given, any grade	–	incidence of Nausea TEAE	52.6%
CCN(CC)CCNC(=O)c1[nH]c2ccccc2c1Sc1ccc(Cl)cc1	Vero-E6	CellTiter-Glo ATP	–	72 h, retest 8-point duplicates	baseline: DMSO 0%, hyamine -100%, more negative, more toxic	maximum response	-6.95%
CCc1ccc(CC/C=C/c2ccc3c(c2)C(=O)CC3)cc1	–	–	Sprague-Dawley rat, female	oral, 450 mg/kg/day, 14 days	–	TC	2.24 mM
O=C(c1ccc(Cl)cc1)N1CCN2C(=O)N(OC(=O)N3CCOc4ccccc43)C(=O)C2C1 (centres unmarked)	Fatty acid synthase (FASN, Homo sapiens, UniProt P49327)	MS-based ABPP	SW-620 conditioned medium	10 µM, 1 h, 37 °C	baseline: compound over DMSO, lower = more inhibition	median protein ratio	0.98

Some of these lines once more:
SMILES	target or system	assay	test system	setting	scale	measurement	value
CC1(C)[C@H](C=C(Cl)Cl)[C@H]1C(=O)OCc1cccc(Oc2ccccc2)c1	–	refers to: CYP1A2	human, age 1 year, recombinant human CYP1A2	0.1 µM	–	enzyme contribution to clearance	0.03%
CN1CC[C@@H](c2c(O)cc(O)c3c(=O)cc(-c4ccc(C(F)(F)F)cc4Cl)oc23)[C@@H]1CO	–	refers to: Epistaxis	relapsed AML	oral, 100 mg, grade 3-4, intermittent dosing	–	patients with adverse event	0%
Cn1nc(NS(C)(=O)=O)c2c(Cl)ccc(-n3c([C@H](Cc4cc(F)cc(F)c4)NC(=O)Cn4nc(C(F)F)c5c4C(F)(F)[C@@H]4C[C@H]54)nc4nc(OCCC(F)(F)F)ccc4c3=O)c21	–	–	human	oral, dose not given	–	participants, with AEs, drug-related	15%
